# Experimental data pooled from the literature.
# Protocols differ between the studies behind these lines. ± gives the spread as reported.
SMILES,tested on,assay,system,setting,quantity,result
CCCCOc1c(C(=O)c2c(F)cc(C)cc2F)c[nH]c2nncc1-2,Trypanosoma brucei,cell growth,,,EC50,0.457 ± 0.163 µM
CC(C(=O)Nc1ccc([C@H]2[C@@H](F)[C@@H](F)C[C@@H](F)[C@H]2F)cc1)n1cncn1 (stereo partly drawn),,,rat liver microsomes,1 µM,hepatic clearance,0.366 L/h/kg
CC(=O)N[C@@H](CSC(=O)[C@]1([C@@H](O)C(C)C)NC(=O)[C@H](C)[C@@H]1O)C(=O)O,Mus musculus,"gene silencing, high-content imaging",LDR reporter GFP cells,"retest, mean of two runs",EC50,31.6 µM
COc1ccc(Nc2cnnc3ccc(-c4cnc(N5CCCN(C)CC5)nc4)cc23)cc1Cl,Trypanosoma brucei,cell growth,,,EC50,0.21 ± 0.02 µM
C[C@@H](Oc1cc(-c2cnn(C3CCNCC3)c2)cnc1N)c1c(Cl)ccc(F)c1Cl,Trypanosoma brucei,cell growth,,,EC50,0.432 ± 0.075 µM
Nc1ccn(C[C@@H](CO)OCP(=O)(O)O)c(=O)n1,Human adenovirus 2,viral replication,HEL,,EC50,5.8 µM
Cc1ncc(-c2ccnc(Nc3ccc(S(C)(=O)=O)cc3)n2)n1C(C)C,Trypanosoma brucei,cell growth,,,EC50,0.033 ± 0.0027 µM
Cc1cc(OC(C)C)ccc1C(=O)C(C)(C)NC(=O)c1sccc1C,Rhizoctonia solani,mycelial growth,PSA medium,20 °C,EC50,> 50 mg/L
CN1CCN(c2ncc(-c3ccc4c(Nc5ncccn5)cnnc4c3)cn2)CC1,Trypanosoma brucei,cell growth,,,EC50,13 ± 1.6 µM
CC(C)C[C@@H](C=O)NC(=O)[C@H](CC(C)C)NC(=O)[C@H](CC(C)C)NC(=O)OCc1ccccc1,Mus musculus,"gene silencing, high-content imaging",LDR reporter GFP cells,"retest, mean of two runs",EC50,2.51 µM
Cc1ccc(N(c2ccc(NC(=O)CN(C)c3ccccc3N3CCCC3=O)cc2)C(C)C)cc1,Plasmodium falciparum,"gametocyte viability, luciferase",stage II-III gametocytes,48 h,EC50,0.006 µM
CC(C)(C)c1cnc(CSc2cnc(NC(=O)C3CCNCC3)s2)o1,Trypanosoma brucei,cell growth,,,EC50,0.118 ± 0.01 µM
Cc1cc(C)c2sc(NC(=O)c3cc4ccccc4o3)nc2n1,West Nile virus,"cytopathic effect, neutral red uptake","Vero 76, Kern 515",,EC50,> 32 µM
CC(=O)N1CC(C(=O)Nc2ccc(C3CCCCC3)cc2)C1,,liver microsome stability,dog liver microsomes,1 µM,hepatic clearance,1.08 L/h/kg
CN1CCN(c2ccc(-c3ccc4c(Nc5ncccn5)cnnc4c3)cc2)CC1,Trypanosoma brucei,cell growth,,,EC50,6.6 µM

# Repeated from above:
SMILES,tested on,assay,system,setting,quantity,result
CC(=O)N1CC(C(=O)Nc2ccc(C3CCCCC3)cc2)C1,,liver microsome stability,dog liver microsomes,1 µM,hepatic clearance,1.08 L/h/kg
CCCCOc1c(C(=O)c2c(F)cc(C)cc2F)c[nH]c2nncc1-2,Trypanosoma brucei,cell growth,,,EC50,0.457 ± 0.163 µM
